Measurements pooled from the literature.
Lines come from different studies, so protocols differ. ± marks the error that the study gave.
Organism: Trypanosoma brucei rhodesiense

Compound | assay | test system | conditions | IC50 [nM]
O=[N+]([O-])c1ccc(/C=N/N=C/c2ccc([N+](=O)[O-])o2)cc1 | parasite growth, CellTiter-Glo | IL1501 bloodstream form | 72 h | 1310 ± 40
Cc1ccc(N2Cc3cc(NC(=O)N4CCN(c5ccc(F)cc5)CC4)ccc3C2=O)cc1 | cell growth, resazurin | STIB-900 | 3 days | 130
CCOC(=O)C(NC(=O)CN1C(=O)/C(=C/c2ccc3c(c2)OCO3)SC1=S)C(C)C (centres unmarked) | cell viability | IL1501 | 72 h | > 69000
O=C(Nc1cc2nc(-c3ccc(F)c(F)c3)c(CN3CCN(c4ccc(F)cc4)CC3)n2cn1)N1CC[C@H](F)C1 | parasite growth | STIB900 | 3 days | 900
O=[N+]([O-])c1ccc(/C=N/N=C/c2ccc(OCc3ccccc3)cc2)o1 | parasite growth, CellTiter-Glo | IL1501 bloodstream form | 72 h | 550 ± 100
O=C(Nc1cc2nc(-c3ccc(F)c(F)c3)c(CO)n2cn1)N1CC[C@H](F)C1 | parasite growth | STIB900 | 3 days | 1060
CCOC(=O)C(CC)NC(=O)CN1C(=O)S/C(=C\c2ccc([N+](=O)[O-])cc2)C1=O (centres unmarked) | cell viability | IL1501 | 72 h | > 66000
Cc1ccc(/C=N/N=C/c2ccc([N+](=O)[O-])s2)cc1 | parasite growth, CellTiter-Glo | IL1501 bloodstream form | 72 h | 2070 ± 990
O=C(Nc1ccc2c(c1)CN(c1ccccc1)C2=O)N1CCN(c2ccc(F)cc2)CC1 | parasite growth, resazurin | STIB-900 | 3 d | > 64000
CCOC(=O)CNC(=O)CN1C(=O)S/C(=C\c2ccc(C)cc2)C1=O | cell viability | IL1501 | 72 h | > 63000
O=C(Nc1ccc2c(c1)CN(c1ccc(Cl)cc1)C2=O)N1CC[C@H](F)C1 | parasite growth, resazurin | STIB-900 | 3 d | > 64000
O=[N+]([O-])c1ccc(/C=N/N=C/c2ccc(F)cc2)s1 | parasite growth, CellTiter-Glo | IL1501 bloodstream form | 72 h | 590 ± 70
O=C(Nc1ccc2c(c1)CN(c1ccccc1)C2=O)N1CC[C@H](O)C1 | parasite growth, resazurin | STIB-900 | 3 d | > 64000
CCOC(=O)C(CC)NC(=O)CN1C(=O)S/C(=C\c2ccc(C)cc2)C1=O (centres unmarked) | cell viability | IL1501 | 72 h | > 59000

For quick reference, copied from above:
Compound | assay | test system | conditions | IC50 [nM]
CCOC(=O)CNC(=O)CN1C(=O)S/C(=C\c2ccc(C)cc2)C1=O | cell viability | IL1501 | 72 h | > 63000
